Published values pooled from the literature.
Each numbered part is a random draw from the data of one study; scales do not carry over between parts. “And” joins repeats or separate records; there may be more than shown.

Study 1
Target: RING finger protein unkempt homolog, zinc fingers 1-6, GST-SBP tag (UNK, Homo sapiens, UniProt Q9C0B0, residues 30-357)
Chain of UniProt Q9C0B0 (30-357, looked up): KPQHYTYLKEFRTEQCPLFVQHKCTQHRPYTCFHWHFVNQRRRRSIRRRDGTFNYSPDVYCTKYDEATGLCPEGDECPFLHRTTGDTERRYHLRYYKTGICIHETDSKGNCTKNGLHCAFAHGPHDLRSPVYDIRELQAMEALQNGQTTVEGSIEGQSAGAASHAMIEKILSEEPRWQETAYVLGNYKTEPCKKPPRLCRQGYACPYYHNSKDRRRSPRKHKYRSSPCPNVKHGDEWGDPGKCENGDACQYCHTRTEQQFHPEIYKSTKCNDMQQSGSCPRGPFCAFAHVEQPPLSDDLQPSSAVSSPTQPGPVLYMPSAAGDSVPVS
Method: RNA Bind-n-Seq
Form: RNA
Sample: in vitro
Concentration: not given
Notes: RNA with constant flanks, human-mouse chimeric sites, ends assumed
Baseline: input RNA pool
Direction: higher = stronger binding
Shared flanks, not repeated: GGGAGUUCUACAGUCCGACGAUC … CAACAGAGGAUUGAGCAUCA
Oligonucleotide | bound/input enrichment
GAGUCGAGCAAACUUGAAACAAUUCGUUAUCUUGCAGAGCUUCGGUGUUUACUUGCCGCGAUAGCAUUGGGGUUUUAUAGGUUCUGGAAGGAGAACUGACGAUGAUGCUGCCGCUGCUGC | 0.623 ratio
ACACAAUAUGAGACCAACAGCAUGGACUUCAAAGUCGGGGCAGAUGGGACAGUCUUCGCCACUAGGGAGCUGCAGGUCCCCUCCGAGCAGGUGGCGUUCACGGUGACUGCAUGGGACAGC | 0.203 ratio
GUAGCUGGGACUACAGAAGAAUGCUGAAUUUCAGUCAGUGAGUCGUGACUUCUGAUGUCCCAGCAAAUGUUGGCAUUGUUGACUGCUGAGAAGAUACUUCUGAGGACCCACGUCUAAGGU | 0.0625 ratio
UCAUUUUUCUCUUUUCUUUCUUUCCUUUAGGAAAAGCCUAAAGAUUAGUAAGAAAAGAAAACAGAAGCCAUGUUUCGAAGACCUGUGUUACAGGUACUUCGUCAGUUUGUAAGACAUGAG | 0.171 ratio
AGAGAUAAGACAUCCAGGAACAUGCGAGGCUCCCGGAUGAAUGGGUUUCCAAGUCCCACUCACAGCGCCCACUGUAGCUUCUACCGAACCAGAACCUUGCAGGCAUUGAGUAAUGAGAAG | 0.0739 ratio

Study 2
Target: Interferon regulatory factor 7, full length, phosphomimetic (IRF7, Homo sapiens, UniProt Q92985, residues 1-503, S101K/S471D/S472D/S475D/S476D/S477D/S483D/S484D/S487D)
Chain of UniProt Q92985 (whole entry, unmodified, looked up): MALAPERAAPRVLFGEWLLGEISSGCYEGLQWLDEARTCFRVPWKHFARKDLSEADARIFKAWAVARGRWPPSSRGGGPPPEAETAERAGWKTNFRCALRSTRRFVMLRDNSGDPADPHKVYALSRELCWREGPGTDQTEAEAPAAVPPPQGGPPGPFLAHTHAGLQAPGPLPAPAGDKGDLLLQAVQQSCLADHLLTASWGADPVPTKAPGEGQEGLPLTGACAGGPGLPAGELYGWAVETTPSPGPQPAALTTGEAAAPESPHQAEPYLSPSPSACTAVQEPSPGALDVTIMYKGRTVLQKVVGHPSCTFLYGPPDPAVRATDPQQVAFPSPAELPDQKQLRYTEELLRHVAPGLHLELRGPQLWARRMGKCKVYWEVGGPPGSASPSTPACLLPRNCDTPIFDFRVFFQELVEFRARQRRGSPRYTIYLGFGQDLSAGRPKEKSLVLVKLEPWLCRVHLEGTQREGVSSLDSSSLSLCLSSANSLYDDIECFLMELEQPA
Method: protein-binding microarray
Form: double-stranded DNA, one strand shown
Sample: in vitro
Concentration: 250 nM
Notes: 60-bp whole probe
With: salmon DNA 0.4 mg/ml
Baseline: random background probes
Direction: higher = stronger binding
Shared flanks, not repeated: GCCTAGCAC … GTCTTGATTCGCTTGACGCTGCTG
Oligonucleotide | log fluorescence [z-score]
GACGGTATCCTACTGCTGATGTGCTAG | -0.556
GACGAACTGGGGTATAGAGACGTGCTA | -0.631
TCATCTCCATTTTTCTAACTGTGCTAG | 1.25
TTAGAACTGGGGACTGGATTCGTGCTA | -0.281
TTAGAACTGGGGTTTGGATTAGTGCTA | -0.515
TTTGAACTGAGTATCGATTAGTGCTAG | 0.31

Study 3
Target: Centromere-binding protein 1, full length, His-tagged (CBF1, Saccharomyces cerevisiae, UniProt P17106, residues 1-351)
Chain of UniProt P17106 (whole entry, looked up): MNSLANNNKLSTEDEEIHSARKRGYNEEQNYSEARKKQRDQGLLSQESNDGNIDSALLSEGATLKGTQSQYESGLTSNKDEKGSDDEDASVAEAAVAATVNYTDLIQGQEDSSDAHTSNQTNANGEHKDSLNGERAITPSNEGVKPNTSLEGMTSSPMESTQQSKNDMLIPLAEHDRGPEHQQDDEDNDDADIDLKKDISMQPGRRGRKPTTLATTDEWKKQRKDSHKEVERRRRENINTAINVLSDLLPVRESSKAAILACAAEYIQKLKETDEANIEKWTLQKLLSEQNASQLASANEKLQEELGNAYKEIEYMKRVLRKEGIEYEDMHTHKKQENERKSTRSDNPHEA
Method: competition protein-binding microarray
Form: double-stranded DNA, one strand shown
Sample: in vitro
Concentration: 2 µM
Notes: whole 60-bp probe, lowest competitor level
With: Pho4 competitor, 0.05 µM
Direction: higher = stronger binding
Shared flanks, not repeated: … GTCTTGATTCGCTTGACGCTGCTG
Oligonucleotide | fluorescence intensity [a.u.]
TTCATCAATGAGACTCTCGTGAAGCTTACCTTGGAG | 85.8
CGCTAAAATTATAACGGCGTGCTGTAGAGAAAAACC | 105
CGATATAGAACAAAGCACGTGTAATTATTCAACTTT | 1750
ATCATGGATGCCCTTTCCGTGATGGGAGTAACGAGA | 69.7
TCATCCAAGTCAGGCCTCGTGAAAAAGAATTCTACT | 158
CACGATAATTTATACGTAATCTGGCCCCTTCTTTCG | 73.4

Other studies, line by line
Substance | target | test | system | conditions | how to read | endpoint | value
PhoQ, residues 284 288 289 292 302 303 SVTLVV | PhoP, residues 12 14 15 18 19 LWHSL (Escherichia coli, UniProt P23836) | Sort-seq, measured: YFP reporter | E. coli | PhoQ-PhoP variant library, with: 10 µM Mg2+ | baseline: high Mg2+ state, higher = stronger signaling | fold induction | 9.66 and 19.8

Some of these lines once more (study 1):
Oligonucleotide | bound/input enrichment
GAGUCGAGCAAACUUGAAACAAUUCGUUAUCUUGCAGAGCUUCGGUGUUUACUUGCCGCGAUAGCAUUGGGGUUUUAUAGGUUCUGGAAGGAGAACUGACGAUGAUGCUGCCGCUGCUGC | 0.623 ratio
ACACAAUAUGAGACCAACAGCAUGGACUUCAAAGUCGGGGCAGAUGGGACAGUCUUCGCCACUAGGGAGCUGCAGGUCCCCUCCGAGCAGGUGGCGUUCACGGUGACUGCAUGGGACAGC | 0.203 ratio
